Results of several laboratories.
Numbered parts are unrelated; each lists some results of a single study. Changes are numbered by the printed parent chain.

Series 1 — technique: RNA Bind-n-Seq; form: RNA; matrix: in vitro; concentration: 365 nM; relative to: no-protein control; direction: higher = stronger binding; measurement: RBNS enrichment (R)
Target: RNA binding protein fox-1 homolog 2, RRM domain, GST-SBP tag (RBFOX2, Homo sapiens, UniProt O43251-10, residues 100-194)
Setting: natural RNA segment, single round, ends assumed
All sequences stand within: GGGAGUUCUACAGUCCGACGAUC … UGGAAUUCUCGGGUGCCAA
Residues (chain): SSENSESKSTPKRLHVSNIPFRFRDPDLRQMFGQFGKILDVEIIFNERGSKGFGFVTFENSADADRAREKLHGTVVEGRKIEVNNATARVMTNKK
GCCUGUUCAAGGCAGAACCACGACCCUUGACUCCCGGGUGGGGAGGUGGCCAAGGAUGCUGGAGCUGAAUCAGACGCUGACAGUUCUUCAGGCAUUUCUAUUUCACAAUC: 0.582
GGCUGUUAACCCAGUCACUCCACCUUUGACACAUUACUAGUAACAAGAGGGGACCACAUAGUCUCUGUUGGCAUUUCUUUGUGGUGUCUGUCUGGACAUGCUUCCUAAAA: 0.325
ACAGAGACGAAAAGGCUACCUCUCCUACCCAAGUUAAGUGUUCAAAGGGGAUGUGAGGGCCUCCACUGAAGCAGGGAGGCAGCUGUGUAAUCCUAUGUCAGCUCUCUUAG: 0.659
UGAGUUAAGAAGUCUUAAGUAUGCAGGCGUUUACGUGAUUGUGCCAUUCCAAAGUGCAUCAGAACUGUCAUUCCCUUCUAAUAUCUUCUCAGGAGUAAUACAAAUCAGGU: 0.532
CAAGAUGGGGUGGCGUUUUUCCCAUACUCACUCCUUCUUGAUUCUUCACUGUGGUCUUUUCCAGAUAAGUUACUUCUUUUGCAUCUGAAAUGGGAUGUGGCCAUGGCAUU: 0.786
CGAAUGUAACCUGCGUGGUGAUGUGACAACUGUUUCCUCCCUGACCCCAGAGGAUCUGGCUCUAGGUUGGGAUCAAUCCUGAAUUUCGUUAUGUGUUAAUUUACUUUUAU: 0.484
AUACUGAAUCCUCAAGAAGCCUUGUCAAGUUUGUAGGUAUCAUUGACGUUUUGACGAUGAGGAAAGGAGAUGCUCAGAGAGAGAGAGAUCAUGUGUUGUGAGUCAGAUCA: 1.33
CAUUAGUCUCCAUAAUUGGUCUCGCUGGACACGUGCACAGCUGUGGCUCUCAGCAGCUUCCCUGCAGCGCCACUGGGCUAAGGGGGAGCGGCCAUUUAUGUUCAUGUUCA: 0.405
UGUAAAAAACAAAAGGCCUUAUGUGAUCUGUAUCAUAGUUAAUAAAUGAAUCUUGUAAAAAACCAAACCUGAGAGAAGUGAAGGGGGGCCUCCUCCUUACCGGGCCAGUG: 0.579
ACGCCCCGUCAACCACAAUCAAGAACUGAGGCCUGAGGCUGGUUGUACAAUGCCCACGCCUGCCUGGCUGCUUUCACCUGGGAGUGCUUUCGAUGUGGGCACCUGGGCUU: 0.465
ACAUUACUCUGUGGCUGCUGGAUUCUUUUCCAGCAUGGCCUGUGGCCUGUGUGAGGCAGAACUGGGACCCUUGAUUCCCAGAUUGGGAGUCAGCCAAGGACACUGGGGCU: 0.226
UACCUGGUGAGUAACUUAGAAAAGUGGUGUAAACUUGUACAUGGAAUUUUUUGAAUAUGCCUUAAUUUAGAAACUGAAAAAUAUCUGGUUAUAUCAUUCUGGGUGUGUUC: 1.9

Series 2 — target: JUND, bZIP domain (human); technique: DHFR protein complementation; matrix: yeast; relative to: wild-type JUN-FOS pair; direction: higher = stronger binding; measurement: binding fitness
Setting: single substitutions, most at no-binding floor
Parent: JUN, bZIP domain (human); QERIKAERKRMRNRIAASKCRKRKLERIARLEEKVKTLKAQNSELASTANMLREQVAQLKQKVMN; partner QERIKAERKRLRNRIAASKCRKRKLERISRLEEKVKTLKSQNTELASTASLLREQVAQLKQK
A46M: -0.573 natural log
K36E: -0.733 natural log
S47I: -0.674 natural log
E33D: -0.741 natural log
L52Y: -1.18 natural log
E44D: -0.917 natural log
A57S: -0.772 natural log
K39S: -0.574 natural log
E33M: -0.859 natural log
K34R: -0.557 natural log
A46K: -0.621 natural log
S43G: -0.744 natural log
E33W: -1.01 natural log

Series 3 — target: CCNB1, cyclin fold, Cln2 fusion (human); technique: yeast growth competition, sequencing; matrix: yeast; setting: weak parent motif; relative to: not given; direction: higher = stronger binding; measurement: normalised enrichment score
Parent: E2F2 docking peptide (human); LPAKRKLDLEGIG
G13A: 1.11
E10A: 0.682
R5K: 0.0428
L7A: 0.283
I12A: -0.00245
K6A: 0.199
D8A: 0.0131

Other studies, line by line
PhoQ, residues 284 288 289 292 302 303 SLCLSL  fold induction (PhoP, residues 12 14 15 18 19 LFHKL (Escherichia coli, UniProt P23836); Sort-seq, item: YFP reporter; E. coli; PhoQ-PhoP variant library, with: 10 µM Mg2+; relative to: high Mg2+ state, higher = stronger signaling): 0.435

For quick reference, copied from above (series 1):
ACGCCCCGUCAACCACAAUCAAGAACUGAGGCCUGAGGCUGGUUGUACAAUGCCCACGCCUGCCUGGCUGCUUUCACCUGGGAGUGCUUUCGAUGUGGGCACCUGGGCUU: 0.465
ACAUUACUCUGUGGCUGCUGGAUUCUUUUCCAGCAUGGCCUGUGGCCUGUGUGAGGCAGAACUGGGACCCUUGAUUCCCAGAUUGGGAGUCAGCCAAGGACACUGGGGCU: 0.226
UACCUGGUGAGUAACUUAGAAAAGUGGUGUAAACUUGUACAUGGAAUUUUUUGAAUAUGCCUUAAUUUAGAAACUGAAAAAUAUCUGGUUAUAUCAUUCUGGGUGUGUUC: 1.9
